Measured values of several laboratories.
Compare with care: the assays were run in different laboratories. Numbers after ± are the reported error.

For `Cc1cc(-c2nccc3c2ccn3CC(=O)Nc2ccc(-c3cnccn3)cn2)ccn1`, “foreign body sensation” read 11.1% (human; 15 mg once daily, multiple ascending dose).
`COc1c(O)c(C)cc2c1C(=O)c1c(O)cccc1C2=O` gave a cell viability of 46.5 ± 3.62% (HepaRG co-cultured with HK-2; MTT; 66.67 µM, 48 h; baseline: untreated control).
`OC[C@H]1O[C@@H](c2ccc(Cl)c(Cc3ccc(O[C@H]4CCOC4)cc3)c2)[C@H](O)[C@@H](O)[C@@H]1O`: “change in Potassium” 0 mEq/L (Japanese type 1 diabetes patients, blood; 2.5 mg, day 28; baseline: baseline).
With `CC(C)NCCCC[C@@H]1NC(=O)[C@H](Cc2ccc(O)cc2)NC(=O)[C@H](Cc2ccccc2)NC(=O)CC[C@H](C(=O)N[C@@H](CCCCNC(C)C)C(=O)N[C@@H](CCCCNC(=O)[C@H](CCC(=O)O)NC(=O)[C@H](CCC(=O)O)NC(=O)[C@H](CCC(=O)O)NC(=O)CN2CCN(CC(=O)O)CCN(CC(=O)O)CCN(CC(=O)O)CC2)C(N)=O)NC(=O)CNC(=O)[C@H](Cc2ccc3ccccc3c2)NC(=O)[C@@H](CCCNC(=N)N)NC1=O` [gallium-68 labelled] the tissue uptake was 0.12 %ID/g (mouse with Daudi xenograft, muscle; intravenous, 1 h).
The metabolic activity of `O=C(O)C[C@H](O)C[C@H](O)/C=C/c1c(C2CC2)nc2ccccc2c1-c1ccc(F)cc1` is reported as 0.95 ± 0.05 (COS-7; WST-8; 30 µM, 24 h, 0.1% DMSO, unit not given; baseline: vehicle control).
For `O=C(c1cccnc1-c1ccncc1)N1CCC(O)(Cc2ccccc2)CC1`, the AUCtau was 224 ng·h/mL (healthy Japanese adults, plasma; oral, 100 mg twice daily, day 7).
`CC(C)(C(=O)N1CCOc2c(C#N)cncc2C1)C(F)F`: “subjects with TEAE” 16.7% (refers to: ventricular extrasystoles; healthy humans, both sexes; oral, 40 mg single dose).
`N#Cc1cc(NC(=O)[C@H]2c3ccccc3C(=O)N(CC(F)(F)F)[C@@H]2c2cccnc2)ccc1F`: “number of unlikely related AEs” 75 (humans, both sexes, all cohorts; oral, dose not given, grade 1, interim).
With `O=C(O)CCc1ccccc1O` the plasma concentration was 701 nM (human plasma; median).
The AUCtau of `Cc1noc(C)c1-c1cc(C(O)(c2ccccn2)c2ccccn2)c2nc(C3CC3)[nH]c2c1` is reported as 4130 ng·h/mL (human, plasma; oral, 4 mg, cycle 1 day 8, monotherapy).
For `CCc1cc2ncc(CN3CCN(c4ccc(C(=O)NC)nc4)CC3)cc2[nH]c1=O`, “Neutrophils count ratio” read 0.55 (female rat, blood; oral, 25 mg/kg/day, 4 weeks; baseline: vehicle control).
`Cc1cc(NC2CCN(C(=O)OC3CCN(C(=O)/C=C/CN(C)C)C3)CC2)n2ncc(C(C)C)c2n1` (centres unmarked) — result for “patients with adverse event”: 0% (Phase I dose escalation CTCAE v4.0, refers to: platelet count decreased; patients with advanced solid tumours; dose not given, TIW dosing any grade).
`CCc1nc(C(N)=O)c(Nc2ccc(N3CCC(N4CCN(C)CC4)CC3)c(OC)c2)nc1NC1CCOCC1` gave an AUCtau of 13500 ng·h/mL (Japanese patients, plasma; oral, 120 mg, cycle 1 day 28, multiple doses, mean).
`Clc1ccc(C(c2c[nH]c3ccccc23)c2c[nH]c3ccccc23)cc1` gave a metabolic activity of 0.13 ± 0.01 (COS-7; WST-8; 30 µM, 24 h, 0.1% DMSO, unit not given; baseline: vehicle control).
`NC1(C(=O)N[C@@H](CCO)c2ccc(Cl)cc2)CCN(c2nc[nH]c3nccc2-3)CC1` — result for “incidence of Dysuria”: 0% (metastatic CRPC patients; 320 mg b.i.d., any grade, treatment-related, together with: enzalutamide 160 mg daily).
`Cc1ccc([C@@H]2O[C@H](CO)[C@@H](O)[C@H](O)[C@H]2O)cc1Cc1ccc(-c2ccc(F)cc2)s1`: “urinary potassium excretion change” 1.97 mEq (Japanese type 2 diabetes patients; 200 mg, day 6, 24 h urine collection; baseline: baseline).
`O=C(O)[C@H]1O[C@@H](Oc2ccc(/C=C/c3cc(O)cc(O)c3)cc2)[C@H](O)[C@@H](O)[C@@H]1O`: “samples above LOQ” 95.6% (human, plasma).
For `CCC[C@@H]1C[C@@H](C(=O)N[C@@H]([C@H]2O[C@H](SC)[C@H](O)[C@@H](O)[C@H]2O)[C@@H](C)O)N(C)C1`, the amount permeated was 0.23 nmol (starch gel membrane permeability; Gram-negative envelope surrogate; 200 µM, 10 min, pH 7.4).
`CCN1/C(=C/C(C)=O)Sc2ccc(F)cc21`: “QTc interval change” 99.7 ± 2% (cynomolgus monkey; oral, 30 mg/kg, 1 h post-dose; baseline: pre-dose).
`CN(C)[C@@H]1C(O)=C(C(N)=O)C(=O)[C@@]2(O)C(O)=C3C(=O)c4c(O)cccc4[C@@](C)(O)[C@H]3C[C@@H]12` has an amount permeated of 2.46 nmol (starch gel membrane permeability; Gram-negative envelope surrogate; 200 µM, 45 min, pH 7.4).
With `O=C(O)/C=C/c1cccc(O)c1` the plasma concentration was 1560 nM (human plasma; median).
The cell viability of `Cc1cc(O)c2c(c1)C(=O)c1cccc(O)c1C2=O` is reported as 35.8 ± 7.15% (HepaRG co-cultured with HK-2; MTT; 266.67 µM, 48 h; baseline: untreated control).
`C[C@H]1CN(C(=O)CC#N)[C@]12CCN(c1ncnc3[nH]ccc13)C2` — result for “subjects with Fatigue”: 3.1% (healthy human; oral, dose not given).
